Published values from different studies.
UCHL1: Ubiquitin carboxyl-terminal hydrolase isozyme L1 (UCHL1, Homo sapiens, UniProt P09936)
Sequence of UniProt P09936 (whole entry, looked up): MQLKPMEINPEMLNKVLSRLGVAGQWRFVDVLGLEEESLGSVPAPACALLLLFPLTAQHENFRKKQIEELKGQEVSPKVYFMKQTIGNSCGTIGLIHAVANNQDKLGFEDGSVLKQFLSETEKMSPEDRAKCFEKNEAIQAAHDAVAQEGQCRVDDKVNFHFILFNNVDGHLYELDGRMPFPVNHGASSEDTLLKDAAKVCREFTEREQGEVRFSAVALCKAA

| SMILES | target or system | assay | system | conditions | quantity | value |
| --- | --- | --- | --- | --- | --- | --- |
| COc1ncc(-c2nc3c(n2C(C)C)[C@H](c2ccc(Cl)cc2)N(c2cc(Cl)cn(C)c2=O)C3=O)c(OC)n1 | – | LC-MS/MS, noncompartmental | human, plasma | oral, 120 mg, cycle 1 day 8, high-dose, geometric mean | AUC(0-last) | 5270 ng·h/mL |
| Nc1c2c(cc3c1CCC3)CCC2 | – | – | human, plasma | oral, 150 mg of GDC-2394, single ascending dose | AUC(0-last) | 133 ng·h/mL |
| Cc1cc(Nc2cc3ncccc3c(N[C@@H]3C[C@H]4CC[C@@H](C3)N4CCC#N)n2)n[nH]1 | – | – | human, plasma | 1000 mg single dose, mean | AUC(0-last) | 157 ng·h/mL |
| Cn1c(=O)oc2ccc(-c3ccc(C[C@@H](C#N)NC(=O)[C@@H]4CNCCCO4)cc3)cc21 | – | – | human, mild renal impairment, plasma | oral, 25 mg single dose, mean | AUC(0-last) | 3590 ng·h/mL |
| C[C@@H](Oc1ccc(S(C)(=O)=O)cc1C(=O)N1C[C@@H]2C[C@]2(c2cc(C(F)(F)F)on2)C1)C(F)(F)F | – | – | healthy human volunteers, fed, plasma | oral, 10 mg single, adjusted geometric mean | AUC(0-last) | 4.61 µM·h |
| CC(C)NC(=O)COc1cccc(-c2nc(Nc3ccc4[nH]ncc4c3)c3ccccc3n2)c1 | – | – | human male, plasma | oral, 200 mg, day 5, alone, adjusted geometric mean | AUC(0-last) | 8430 ng·h/mL |
| C[C@H]1CN(C(=O)CC#N)[C@]12CCN(c1ncnc3[nH]ccc13)C2 | – | – | healthy adult humans, plasma | oral, 12 mg single, geometric mean | AUC(0-last) | 389 ng·h/mL |
| Cc1noc(C)c1-c1cc(C(O)(c2ccccn2)c2ccccn2)c2nc(C3CC3)[nH]c2c1 | – | – | human patients, fasted, plasma | oral, 3 mg once daily, cycle 1 day 15, together with: enzalutamide once daily | AUC(0-last) | 653 ng·h/mL |
| CC(C)n1nc(-c2ccc3oc(N)nc3c2)c2c(N)ncnc21 | – | – | human, plasma | oral, 2 mg once daily, cycle 1 day 15 | AUC(0-last) | 236 ng·h/mL |
| CO[C@H]1C[C@@H]2CC[C@@H](C)[C@@](O)(O2)C(=O)C(=O)N2CCCC[C@H]2C(=O)O[C@H]([C@H](C)C[C@@H]2CC[C@@H](OC(=O)NCCOCCOCCOCCOCCOCCOCCOCCOCCC(=O)N3CCc4cc(Cn5nc(-c6ccc7oc(N)nc7c6)c6c(N)ncnc65)ccc4C3)[C@H](OC)C2)C[C@@H](O)[C@H](C)/C=C(\C)[C@@H](O)[C@@H](OC)C(=O)[C@H](C)C[C@H](C)/C=C/C=C/C=C/1C | – | – | human patients, plasma | intravenous, 10 mg, cycle 1 day 15, 2 h infusion | AUC(0-last) | 693 ng·h/mL |
| N#CCNC(=O)c1ccc(-c2ccnc(Nc3ccc(N4CCOCC4)cc3)n2)cc1 | – | – | healthy human volunteers, plasma | oral, 200 mg single dose, day 1, fasted, given alone | AUC(0-last) | 3140 ng·h/mL |
| CC(C)c1noc2ncc(C(=O)N3CCSSCC3)cc12 | UCHL1 | covalent, intact protein LC-MS | – | 12.5 µM | labelling | 7.71% |
| Cn1nc2c(=O)n(C3CC3)cnc2c1[C@](O)(c1cnc(C(F)(F)F)c(Cl)c1)C(F)(F)F | – | – | infected humanized SCID mice, blood | 1 mg/kg daily, 6 days | AUC(0-last) | 51.4 µM·h |
| CCOc1c([C@H](C)n2nc(C)c3c(N)ncnc32)cc(Cl)c(F)c1[C@@H]1CNC(=O)C1 | – | – | human patients, plasma | oral, 20 mg, day 1, geometric mean | AUC(0-last) | 6.41 µM·h |
| CN(C)C(=O)c1cc2cnc(Nc3ccc(N4CCNCC4)cn3)nc2n1C1CCCC1 | – | – | human, severe renal impairment, plasma | oral, 400 mg, geometric mean | AUC(0-last) | 10800 ng·h/mL |
| N#CC(=Cc1cccc(Cl)c1Cl)C(=O)Nc1ccc(F)cc1 | UCHL1 | covalent, intact protein LC-MS | – | 12.5 µM | labelling | 11.1% |
| CC(F)(F)c1cc(F)ccc1-c1sc2cc(O)ccc2c1Oc1ccc(/C=C/C(=O)O)cc1 | – | – | human, serum | oral, 600 mg once daily, cycle 1 day 28, fasted, mean | AUC(0-last) | 26900 ng·h/mL |

Repeated from above:
| SMILES | target or system | assay | system | conditions | quantity | value |
| --- | --- | --- | --- | --- | --- | --- |
| CN(C)C(=O)c1cc2cnc(Nc3ccc(N4CCNCC4)cn3)nc2n1C1CCCC1 | – | – | human, severe renal impairment, plasma | oral, 400 mg, geometric mean | AUC(0-last) | 10800 ng·h/mL |
